Experimental data collected from several papers.
A part holds a random share of what one study measured. Substitutions count along the parent as printed.

Set 1
Target: RNA binding protein fox-1 homolog 2, RRM domain, GST-SBP tag (RBFOX2, Homo sapiens, UniProt O43251-10, residues 100-194)
Technique: RNA Bind-n-Seq
Molecule type: RNA
Sample: in vitro
Concentration: 365 nM
Notes: natural RNA segment, single round, ends assumed
Reference: no-protein control
Reading: higher = stronger binding
Endpoint: RBNS enrichment (R)
Shared flanks, not repeated: GGGAGUUCUACAGUCCGACGAUC … UGGAAUUCUCGGGUGCCAA
Target sequence (chain): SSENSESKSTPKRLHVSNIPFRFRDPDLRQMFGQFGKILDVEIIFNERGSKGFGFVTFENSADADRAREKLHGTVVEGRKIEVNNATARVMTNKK
CCACUCUGCUCCUUCCACCCAUGAAUUGUGUGUCUGUGUAUUUAAGAGAACUGAGACUAAUGUAUUUUCCAAAAUUUCCUAAGGCUUUCCCCCGUUGUUUACAUGUUGAA: 0.656
AGCGAGCAUGGAGUGCCUCAGCUGACCCUGUUCCCGUUCCCUUGCCCCUGCCUCUUCCCUAGUGUCAGCCUACUCCAGGCUCCCAGCUGCCUUGAGAGGCCGCGGACAAA: 0.643
CGAUUUGCCAUCGAAAGACGACCUCUACUUUUUUCUUUUGUAUUUUGAUAAACACUGAAGAAGCUGGAGCUGUUAAAUUUAUCUUGGGGAAAUCUCAGAACUGGUUUAUU: 0.452
UAGGUCUGCAUUGGAAAUGACUAUUAAUUUGUAAAGAAGUAAGUUUUAUUAAACACUGUCUAGAAAAAGAAAGUGAAGCUGAGAACUCUUCCUUUAUUGUGCAUUUAUAU: 1.81
ACUUAAGAAUACUCCUGGCAUAAGUUACUAGAAGUGGUGUGUAUAUAUUCGGGGGAGUAAGGAAAUAAGUUAUGUUUAAUAAUAGCUUAAGAUGACCAGCAAUGCCUGUA: 1.12
UGUCAUCUUUAGAAAGUGAGAUAACCAAGGAAAUAAUUGAAGGAGUAUAGGGAGAUGGAUUAAGUUGAUAAUGACAUUUAGGGCAACUUAAGACCUUUGAUCCCAGGUUC: 0.897
AAAAAAAAACACCUACUUUUAAAGAAAAUACCUAACAGAUUUUUAAUAUAGUUAUCUCUACCACUUUCUUUUCUAGUUUCUUGAUUUUCAGCUCAGGCUGCAUUCUAACU: 0.515
UGUGCAGAAUACUCAACAAUGUUCAAAGACCUUCUUAACUAUUCAGAAGGCAGGAAGUCCUACACCAUAGUUAGAUGAACCUAACUGUACCUGGAAGUUGCCCAUUUAAC: 0.301

Set 2
Organism: Saccharomyces cerevisiae
Effect on: binding
Technique: competitive growth deep sequencing
Molecule type: peptide
Strain: cyclin E1-Cln2 fusion strain
Notes: peptide tiling library
Reading: direction not given
Endpoint: enrichment score
TSPGPVLLHPSPSTTQ: 0.825
KSKHEEEEWTDDDLVE: 1.11
GQLVIPLDELTLDTSF: 2.69
LAKRALKYTD: -0.684
PFSENVSAVQKLDFSD: 1.9
AGSAKRRLFGEDPPKE: 2.97
SPREGHMMDALYAQVK: 0.799
ISRLFPPRTPGWHQLQ: -1.94
QDYERRLLRQIVIQNE: -0.68
RSLKLDGLLEEN: -1.12
KDDDKAWEYEERDRRS: 0.411
MNQELLSVGSKRRRTG: 2.37
IQKKLRFEDTLEFVGF: -0.88

Set 3
Target: Histone acetyltransferase KAT6A, both winged helices, GST fusion (KAT6A, Homo sapiens, UniProt Q92794, residues 1-181)
Technique: protein binding microarray
Molecule type: double-stranded DNA, one strand shown
Sample: in vitro
Concentration: not given
Notes: 8-mer, flanks averaged, mean of 2 arrays, mostly near background
Reference: not given
Reading: higher = stronger binding
Endpoint: E-score
Target sequence (chain): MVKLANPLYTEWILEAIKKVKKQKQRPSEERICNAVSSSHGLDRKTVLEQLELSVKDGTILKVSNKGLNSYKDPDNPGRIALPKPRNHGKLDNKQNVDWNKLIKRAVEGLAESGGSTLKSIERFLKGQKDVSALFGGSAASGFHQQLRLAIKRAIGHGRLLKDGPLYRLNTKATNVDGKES
AAATGCCA: -0.263
CTGTCCAC: -0.0625
AACACCTG: -0.141
GGTGTGTA: 0.0323
ACTTTCTC: -0.109
GTCAGCCA: -0.203
CCGCGCAC: 0.311
CATGCTAA: -0.0898
GGAATGAC: 0.0256
AGCCGGTC: 0.164
GGACAACA: -0.123
CGAATCGA: 0.0707
AACGTCCC: -0.0565
ATGAACGC: 0.101
ATTTTATC: 0.0414
ACAGTTAG: -0.0166
ACAGTTGG: -0.0493
CGAGAGAG: -0.0561
CGACAGCC: 0.0002
ACGCGTAC: 0.308
ACTGTCAA: -0.0315
GGAGTCCC: -0.0179
CATCCTCG: 0.055
CATGCATA: -0.0475

Set 4
Target: ABI1, truncated, D143A, DHFR fusion (Arabidopsis thaliana)
Technique: DHFR PCA, deep sequencing
Sample: yeast
Notes: methotrexate growth selection, single substitutions
Added: (+)-ABA 1.4 µM
Reference: wild-type fitted maximum
Reading: higher = stronger binding
Endpoint: relative binding score
Parent: PYL1, truncated, DHFR fusion (Arabidopsis thaliana); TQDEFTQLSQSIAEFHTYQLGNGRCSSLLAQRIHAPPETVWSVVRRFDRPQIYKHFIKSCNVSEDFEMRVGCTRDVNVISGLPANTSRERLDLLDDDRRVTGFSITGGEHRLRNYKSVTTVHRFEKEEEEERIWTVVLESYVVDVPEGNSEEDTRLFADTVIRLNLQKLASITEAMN
D75P: -3.01%
L166Q: 0.606%
A13P: -18.9%
Y18D: -7.35%
Y53M: 3.15%
G107D: 30.7%
R88P: -6.99%
A175I: 6.48%
I57C: -0.164%
G81A: 2.35%
G71A: -1.26%
Y18N: 0.956%
Q51F: 11.1%
E139W: 34.8%
E127V: 55.3%
D65G: 51%
A13S: 43.6%
T173G: -2.58%
S80H: 13.6%
C72G: 10.6%
S27E: -2.13%
T154L: -12.1%
D48M: -4.61%

Set 5
Target: Sal-like protein 4, full length isoform B (SALL4, Homo sapiens, UniProt Q9UJQ4-2, residues 1-616)
Technique: universal PBM
Molecule type: double-stranded DNA, one strand shown
Sample: in vitro
Concentration: not given
Notes: 8-mer, flanks averaged, mean of replicates
Reading: higher = stronger binding
Endpoint: E-score
CCCCGTCA: -0.206
AATGGTCA: 0.126
AAGCATAC: 0.312
CGCATCCA: -0.191
GATCCAGA: -0.0877
CTATTGGA: 0.165
ATGTACGC: 0.0767
GGGGCAAA: -0.0759
ATTAAGCC: 0.179
GCGGGAAC: -0.369
CGAAGGTA: 0.0438
GGGTAAAC: -0.0101
AGTCCGTC: -0.127
ACTCTTGA: -0.0153
ACGCCGCT: -0.327
TATCCGCA: 0.16
GCAACCGC: -0.163
ATGGATTA: 0.239
GGCAAAAA: 0.144
TACGTTCA: 0.198
CGCCAGTA: -0.256
CATCTCCC: -0.144
GTGACAAA: 0.0483
ACGCTGAT: -0.00137
ATTAGCTA: 0.1

Excerpt of the above (set 5):
GGGGCAAA: -0.0759
CCCCGTCA: -0.206
CATCTCCC: -0.144
AAGCATAC: 0.312
AGTCCGTC: -0.127
CGCCAGTA: -0.256
ATGGATTA: 0.239
